Assay results gathered from unrelated publications.
A part holds a random share of what one study measured. Positions count from the first letter of the parent shown.

Sample 1 — target: ATF2, bZIP domain (human); method: DHFR protein complementation; matrix: yeast; baseline: wild-type JUN-FOS pair; direction: higher = stronger binding
Setting: single substitutions, most at no-binding floor
Parent: JUN, bZIP domain (human); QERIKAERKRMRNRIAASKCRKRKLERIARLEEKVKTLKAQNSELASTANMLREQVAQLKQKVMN; partner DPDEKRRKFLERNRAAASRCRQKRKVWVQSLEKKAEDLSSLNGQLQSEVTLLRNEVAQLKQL
Change	binding fitness
A49G	-1.45 natural log
K36G	-1.45 natural log
K36L	-1.27 natural log
R53C	-1.4 natural log
V35L	-1.42 natural log
S43V	-1.38 natural log
K39Y	-1.44 natural log
L52I	-1.59 natural log
A46F	-1.48 natural log
E32F	-1.54 natural log

Sample 2 — method: DHFR PCA, deep sequencing; matrix: yeast; added: (+)-ABA 1.4 µM; baseline: wild-type fitted maximum; direction: higher = stronger binding
Target: ABI1, truncated, D143A, DHFR fusion (Arabidopsis thaliana)
Setting: methotrexate growth selection, single substitutions
Parent: PYL1, truncated, DHFR fusion (Arabidopsis thaliana); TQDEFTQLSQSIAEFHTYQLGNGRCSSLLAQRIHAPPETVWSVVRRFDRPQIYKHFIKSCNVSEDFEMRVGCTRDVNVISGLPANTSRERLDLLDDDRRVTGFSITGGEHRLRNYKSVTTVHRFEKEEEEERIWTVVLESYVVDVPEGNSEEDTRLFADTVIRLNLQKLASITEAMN
Change	relative binding score [%]
S11V	74
S42D	49.5
I33L	6.57
A170L	-21.3
F5Y	31.1
Q19A	58.6
V44P	-0.889
K116W	-3.9
A30G	34.9
H34Q	41.4
N77I	61.8
H110G	15.1
T101S	17.6
G23P	-5.36

Sample 3 — target: CCNE1, cyclin fold, Cln2 fusion (human); method: yeast growth competition, sequencing; matrix: yeast; setting: strong parent motif; baseline: not given; direction: higher = stronger binding
Parent: CDKN1A docking peptide (human); SKACRRLFGPVDS
Change	normalised enrichment score
R5E	0.123
R5W	0.395
G9H	5.46
V11C	5.56
C4H	1.03
L7F	0.414
L7V	0.703
R6Y	1.77
K2E	4.1
P10R	3.43
V11S	5.53
L7Q	0.194
A3Y	2.21
V11L	5.19

Sample 4 — method: protein binding microarray; form: double-stranded DNA, one strand shown; matrix: in vitro; tested at: not given; baseline: not given; direction: higher = stronger binding
Target: Histone acetyltransferase KAT6A, winged helix 1, GST fusion (KAT6A, Homo sapiens, UniProt Q92794, residues 1-85)
Setting: 8-mer, flanks averaged, mean of 2 arrays, mostly near background
Construct (chain): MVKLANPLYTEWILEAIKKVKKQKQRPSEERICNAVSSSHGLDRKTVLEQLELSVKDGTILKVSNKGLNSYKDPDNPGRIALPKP
Oligonucleotide	E-score
CTAAGGAA	-0.0463
GATGAACA	-0.224
AATGACAA	-0.283
CCTGTATC	-0.124
CCCGGCTC	0.142
AGACGTTG	-0.121
GAGAATCC	-0.0288
CCGATTCG	0.115
GGGGGACC	0.0506
GTCCAGGA	-0.28
ATGGCGTG	-0.04
AATGGGCC	-0.0554
CACAGATA	-0.224
AGTTTTCG	-0.211
CTATGAGA	-0.138
ACACAGCG	0.275
AAGCACTT	-0.113
CGCTACGC	0.404
CAAATCCG	0.0766
CAATCAGC	-0.0179
TGAGGAAA	-0.126

Sample 5 — method: RNA Bind-n-Seq; form: RNA; matrix: in vitro; tested at: 365 nM; baseline: no-protein control; direction: higher = stronger binding
Target: RNA binding protein fox-1 homolog 2, RRM domain, GST-SBP tag (RBFOX2, Homo sapiens, UniProt O43251-10, residues 100-194)
Setting: natural RNA segment, single round, ends assumed
Constant ends, left off below: GGGAGUUCUACAGUCCGACGAUC … UGGAAUUCUCGGGUGCCAA
Target sequence (chain): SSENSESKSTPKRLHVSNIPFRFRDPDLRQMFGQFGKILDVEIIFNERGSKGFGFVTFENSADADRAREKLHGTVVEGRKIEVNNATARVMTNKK
Oligonucleotide	RBNS enrichment (R)
AAAAGUAUAUGCAGGAUUAAUUUUACAUAAAGGCCUCUUCUGUAACAUUUCUCUAUUUUUUGAAAUACAAUUGCAAUAACUUCAGUCUUUUUACAUUCUUCUGCUGCAUC	1.2
CACCCCUCCCACAGCACCCAGCCUCACUACCCCAGCAUGGGGUACCCAGCUGGAUACUCCCAAAAUGUCACAUCCCAUCCAACCUCAGAUCUGAUGCAGUCAUCUGUGUC	0.475
CAAGGUGGCAAAAAUUAGCUAUACUGAUGUAAUUGUCAUUUACCUGGGUAUGAAUUCCCUGACACACAUUCAUGUCAACAUAUGUAGCAAAUUUUGUGAAAACAUAACAA	0.616
AGGAGGUGGGGAGCAAAGAGGGCAGCCUGACUAGAUGCCCCUGCUGAAUCUGGUACUUUCUGCACAGCCUUGAGUGAUUGGAGUCCCCUAAUGACUAAUAAACUUGAACA	0.87
AGUUUUCAAAAGUUCUUAAAGGCAAGAGUGAAUUUCUGUGGAUUUUACUGGUCCCAGCUUUUAGGUUCUUUAAGACACUAACAGGACUACAUAGAGGCUUUUUCAGCAUU	0.548
UAAAUAUUUGUCCUUAAAGGGUUUGAGAUGUACAUCUUUCAUUUCGUAUUUCUCAUAGGCUAUGCCAUGUGCGGAAUUCAAGUUACCAAUGUAACACUGGCCAGCGGGCC	0.491
GGGGGUAGAGGCUUCUUAGAUUCUCCCAGCAUCCGCCUUUCCCUUUAGCCAGUCUGCUGUCCUGAAACCCAGAAGUGAUGGAGAGAAACCAACAAGAGAUCUCGAACCCU	0.736
AUAUUUUGAAAUAUAUUUGAUAUAGUACUCUGCCAUUUUCAUCAUGUUAACUUUCAGUGUCACCAUCUUACAGCUUAGGGGCAUUUGCAUUCCCCUGACAAAGGUAUCAU	0.312
CUCCUGGCAUGAAAAUAAAACAAAGGUUUUCGUUGUUGUUGUUCCAUUGCCCAUUUCCCCCAUGUUGUCUUUCCCUUGGCUGAUGCCUCCUCUGGGUCACAUUGCUUCUU	0.896
UUUUCUGGGAUAUGUCAUUGGCAAGAGGAAGAACUGGUGUUUUGAAAGCAGUAUGGAUUCUUUAAAUGCCUCUCACUCUUACAAGAUAGUAGGCUUUGAGAUAAUAAACU	0.48
AACCCUAUGAAGAGUAACAGUGUAGACCAGACUGCCUCUCUCAGAUAUGUGCCUGAUAUUUUGUGGAUACCUCCCCUGCACUGGCAAAACACUAUGCUUUUGGGUGUUAG	0.46
UGAAAAGAAUUGUCUCUAAUUAUUUGAACCUCUGAAGAAUUGUACACAAGGAGGAUCAGACUUUAAAACUAUCCAUGUGGAUUCUGAGAGCUGCUGCCCAGCAGAAGUCU	0.28

Sample 6 — method: universal PBM; form: double-stranded DNA, one strand shown; matrix: in vitro; tested at: not given; direction: higher = stronger binding
Target: Sal-like protein 4, full length isoform B (SALL4, Homo sapiens, UniProt Q9UJQ4-2, residues 1-616)
Setting: 8-mer, flanks averaged, mean of replicates
Residues (chain): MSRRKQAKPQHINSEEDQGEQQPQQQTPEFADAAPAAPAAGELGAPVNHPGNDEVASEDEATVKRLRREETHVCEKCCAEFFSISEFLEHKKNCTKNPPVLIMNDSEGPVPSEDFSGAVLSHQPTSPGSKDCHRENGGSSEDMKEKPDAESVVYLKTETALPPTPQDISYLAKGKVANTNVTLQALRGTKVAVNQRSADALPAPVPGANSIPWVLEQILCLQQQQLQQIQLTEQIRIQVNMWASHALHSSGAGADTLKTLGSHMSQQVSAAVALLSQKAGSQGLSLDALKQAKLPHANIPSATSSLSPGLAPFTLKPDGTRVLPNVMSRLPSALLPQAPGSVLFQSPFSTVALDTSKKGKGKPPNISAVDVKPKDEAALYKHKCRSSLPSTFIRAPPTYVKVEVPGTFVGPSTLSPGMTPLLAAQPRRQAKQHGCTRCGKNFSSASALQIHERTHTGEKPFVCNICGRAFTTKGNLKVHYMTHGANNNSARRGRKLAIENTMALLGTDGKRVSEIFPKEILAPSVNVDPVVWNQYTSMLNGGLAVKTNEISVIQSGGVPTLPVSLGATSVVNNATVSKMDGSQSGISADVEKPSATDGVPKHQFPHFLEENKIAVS
Oligonucleotide	E-score
CTAGTCTA	-0.109
GGCCAGTA	-0.138
ATCAGGCA	-0.0599
ACAGTATA	0.221
CCTTTAAC	0.099
ATGGGCGA	-0.289
CGAAAAAC	0.023
AACTTACA	0.198
CAGATAAA	0.153
AACTGGTG	-0.229
ACCATCGC	-0.0672
ACTGCACG	-0.137
AGTAACCC	-0.0829
AACAATCG	0.00789
TGCAGAAA	0.165
GGCCCAGA	-0.17

Sample 7 — method: protein-binding microarray; form: double-stranded DNA, one strand shown; matrix: in vitro; tested at: 250 nM; setting: 60-bp whole probe; added: salmon DNA 0.4 mg/ml; baseline: random background probes; direction: higher = stronger binding; constant ends, left off below: GCCTAGCAC … GTCTTGATTCGCTTGACGCTGCTG
Target: Interferon regulatory factor 7, full length, phosphomimetic (IRF7, Homo sapiens, UniProt Q92985, residues 1-503, S101K/S471D/S472D/S475D/S476D/S477D/S483D/S484D/S487D)
Construct (chain): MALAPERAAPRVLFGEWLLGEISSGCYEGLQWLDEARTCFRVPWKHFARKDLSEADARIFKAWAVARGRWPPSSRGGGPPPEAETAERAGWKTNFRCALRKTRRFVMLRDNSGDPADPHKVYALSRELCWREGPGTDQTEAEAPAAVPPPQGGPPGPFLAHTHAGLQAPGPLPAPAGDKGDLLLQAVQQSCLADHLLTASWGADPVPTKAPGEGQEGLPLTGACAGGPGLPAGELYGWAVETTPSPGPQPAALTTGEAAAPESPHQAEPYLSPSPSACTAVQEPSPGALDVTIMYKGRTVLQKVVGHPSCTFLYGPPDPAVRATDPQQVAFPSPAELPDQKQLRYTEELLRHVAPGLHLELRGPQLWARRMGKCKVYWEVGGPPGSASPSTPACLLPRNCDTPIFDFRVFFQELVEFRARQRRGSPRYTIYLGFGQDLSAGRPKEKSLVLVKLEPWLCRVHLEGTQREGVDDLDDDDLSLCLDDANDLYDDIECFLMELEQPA
Oligonucleotide	log fluorescence [z-score]
TCAGTATTATTTATTGTACTGTGCTAG	0.155
TTAAATTCCAGTTTCGATTAGTGCTAG	9.39
GACGGTTTCGACACCGGGGACGTGCTA	3.33
GACGGTTTCGGTTTCGGGTCGTGCTAG	15.2
GACGATCTCGGACTGGAGACGTGCTAG	-0.305
GACGGTTCCCTTGTCCTGACGTGCTAG	0.264
TTAGAGCTCAGTTTCGATTAGTGCTAG	7.95
TGAACTAGCGGGTCTTGCAGTGTGCTA	-1.09
TTGGGTATCGGGTATCGGTTAGTGCTA	1.36
TCAGCTTTCTTTACCACACTGTGCTAG	0.374
TCTTGTCTGGAGTCTCTGTTCGTGCTA	0.823
CTAGGACTGGACACTGGGTTAGTGCTA	-0.468
GCCGATTTCAGACTGGAGACGTGCTAG	0.533
CCATTTTGGTTTTCTCTATTGGTGCTA	2.35
GACGGACTGGGTCTCGAGACGTGCTAG	-0.0972
GACGATTTCAGGCTCGAGACGTGCTAG	0.444
GACGGTTCCGGTTTCGGCACGTGCTAG	6.23
GAAGATTTCAGTTCCGAGACGTGCTAG	0.688
TCAACTCGCCTTTTTTGACTGTGCTAG	0.251
TCACTTCTGCATTACAGACTGTGCTAG	0.759
GACCATATCGGGTATCGAGACGTGCTA	0.221
TTAGATCTGAGTCTCGATTAGTGCTAG	1.02
GACGGTATCCTAATGCTGACGTGCTAG	0.135
TTATGACTGGACTTTCGGTTAGTGCTA	0.617
GACGGACTGGGAATCGGGACGTGCTAG	-0.472

A few entries again (sample 7):
Oligonucleotide	log fluorescence [z-score]
TCAGTATTATTTATTGTACTGTGCTAG	0.155
TTAAATTCCAGTTTCGATTAGTGCTAG	9.39
GACGGTTTCGACACCGGGGACGTGCTA	3.33
GACGGTTTCGGTTTCGGGTCGTGCTAG	15.2
GACGATCTCGGACTGGAGACGTGCTAG	-0.305
GACGGTTCCCTTGTCCTGACGTGCTAG	0.264
TTAGAGCTCAGTTTCGATTAGTGCTAG	7.95
TGAACTAGCGGGTCTTGCAGTGTGCTA	-1.09
TTGGGTATCGGGTATCGGTTAGTGCTA	1.36
TCAGCTTTCTTTACCACACTGTGCTAG	0.374
TCTTGTCTGGAGTCTCTGTTCGTGCTA	0.823
CTAGGACTGGACACTGGGTTAGTGCTA	-0.468
GCCGATTTCAGACTGGAGACGTGCTAG	0.533
CCATTTTGGTTTTCTCTATTGGTGCTA	2.35
GACGGACTGGGTCTCGAGACGTGCTAG	-0.0972
GACGATTTCAGGCTCGAGACGTGCTAG	0.444
GACGGTTCCGGTTTCGGCACGTGCTAG	6.23
